Measurements from different studies.
Every numbered part comes from another study and shows a few of its results, in no order. Changes are numbered by the printed parent chain.
UniProt Q38829, sequence (whole entry, looked up): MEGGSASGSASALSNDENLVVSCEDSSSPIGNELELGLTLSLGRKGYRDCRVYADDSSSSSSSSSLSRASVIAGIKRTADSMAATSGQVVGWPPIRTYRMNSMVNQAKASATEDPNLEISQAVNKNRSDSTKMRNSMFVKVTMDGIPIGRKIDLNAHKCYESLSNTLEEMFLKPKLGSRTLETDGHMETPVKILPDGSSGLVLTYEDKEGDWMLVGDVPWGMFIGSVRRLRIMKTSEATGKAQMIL
UniProt Q38830, sequence (whole entry, looked up): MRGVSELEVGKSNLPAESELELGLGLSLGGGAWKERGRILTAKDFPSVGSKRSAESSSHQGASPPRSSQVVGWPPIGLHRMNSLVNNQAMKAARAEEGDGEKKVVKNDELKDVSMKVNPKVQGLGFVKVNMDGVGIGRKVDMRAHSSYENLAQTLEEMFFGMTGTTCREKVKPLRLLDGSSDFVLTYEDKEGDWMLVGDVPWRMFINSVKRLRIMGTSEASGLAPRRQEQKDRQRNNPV
UniProt Q9FKM7, sequence (whole entry, looked up): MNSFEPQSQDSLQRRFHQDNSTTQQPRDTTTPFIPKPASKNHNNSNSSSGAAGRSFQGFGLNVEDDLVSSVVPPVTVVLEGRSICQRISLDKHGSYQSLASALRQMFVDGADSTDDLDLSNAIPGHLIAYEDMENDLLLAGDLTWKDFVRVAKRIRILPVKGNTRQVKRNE
UniProt Q9FGV1, sequence (whole entry, looked up): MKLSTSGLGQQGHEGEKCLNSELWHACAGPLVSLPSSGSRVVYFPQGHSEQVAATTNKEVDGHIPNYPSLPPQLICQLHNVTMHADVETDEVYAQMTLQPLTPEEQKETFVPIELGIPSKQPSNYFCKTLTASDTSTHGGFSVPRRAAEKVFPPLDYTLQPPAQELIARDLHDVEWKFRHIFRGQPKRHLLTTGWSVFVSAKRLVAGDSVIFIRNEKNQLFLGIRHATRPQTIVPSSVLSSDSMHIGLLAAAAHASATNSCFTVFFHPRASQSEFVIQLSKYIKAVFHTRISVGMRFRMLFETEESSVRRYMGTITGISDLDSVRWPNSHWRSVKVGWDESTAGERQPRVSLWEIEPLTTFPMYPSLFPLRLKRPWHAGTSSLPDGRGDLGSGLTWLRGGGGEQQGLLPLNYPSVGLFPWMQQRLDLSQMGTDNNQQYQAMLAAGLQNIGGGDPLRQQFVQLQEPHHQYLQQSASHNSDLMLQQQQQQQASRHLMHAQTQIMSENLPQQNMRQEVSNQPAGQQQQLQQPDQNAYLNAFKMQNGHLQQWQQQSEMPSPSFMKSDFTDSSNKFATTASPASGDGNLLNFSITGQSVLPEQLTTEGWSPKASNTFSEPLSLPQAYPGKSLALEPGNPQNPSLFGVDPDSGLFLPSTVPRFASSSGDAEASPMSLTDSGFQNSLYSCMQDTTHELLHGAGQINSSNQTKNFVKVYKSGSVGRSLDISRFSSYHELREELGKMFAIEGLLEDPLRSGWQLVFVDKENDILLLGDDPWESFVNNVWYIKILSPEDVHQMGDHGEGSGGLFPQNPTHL
UniProt Q9SKN5, sequence (whole entry, looked up): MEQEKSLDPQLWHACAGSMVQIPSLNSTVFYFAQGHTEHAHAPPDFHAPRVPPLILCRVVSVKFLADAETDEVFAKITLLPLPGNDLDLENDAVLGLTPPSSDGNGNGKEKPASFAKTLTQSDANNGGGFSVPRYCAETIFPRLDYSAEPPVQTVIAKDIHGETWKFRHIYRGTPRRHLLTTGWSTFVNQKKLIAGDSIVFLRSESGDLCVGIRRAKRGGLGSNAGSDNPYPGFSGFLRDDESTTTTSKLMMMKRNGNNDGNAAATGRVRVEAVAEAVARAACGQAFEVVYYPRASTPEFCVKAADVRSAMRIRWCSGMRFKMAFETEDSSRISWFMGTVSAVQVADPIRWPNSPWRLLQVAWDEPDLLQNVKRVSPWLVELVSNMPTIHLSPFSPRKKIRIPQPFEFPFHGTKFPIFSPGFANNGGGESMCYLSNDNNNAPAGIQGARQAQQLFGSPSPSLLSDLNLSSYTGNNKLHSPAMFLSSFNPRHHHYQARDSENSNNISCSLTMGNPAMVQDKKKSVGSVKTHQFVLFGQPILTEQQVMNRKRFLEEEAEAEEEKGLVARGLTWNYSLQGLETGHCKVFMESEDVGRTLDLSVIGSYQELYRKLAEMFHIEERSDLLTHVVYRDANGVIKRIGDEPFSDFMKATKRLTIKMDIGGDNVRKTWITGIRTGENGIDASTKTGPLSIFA
UniProt Q9ZSY8, sequence (whole entry, looked up): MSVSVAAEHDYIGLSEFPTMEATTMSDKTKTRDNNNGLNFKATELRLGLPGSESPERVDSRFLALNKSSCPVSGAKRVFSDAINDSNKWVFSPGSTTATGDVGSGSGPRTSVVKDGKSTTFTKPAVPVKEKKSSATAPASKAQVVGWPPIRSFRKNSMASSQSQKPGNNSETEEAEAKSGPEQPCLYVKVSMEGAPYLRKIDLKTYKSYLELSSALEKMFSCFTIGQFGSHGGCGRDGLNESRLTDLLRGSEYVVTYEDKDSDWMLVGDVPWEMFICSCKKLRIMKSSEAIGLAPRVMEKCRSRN
UniProt Q9ZPY6, sequence (whole entry, looked up): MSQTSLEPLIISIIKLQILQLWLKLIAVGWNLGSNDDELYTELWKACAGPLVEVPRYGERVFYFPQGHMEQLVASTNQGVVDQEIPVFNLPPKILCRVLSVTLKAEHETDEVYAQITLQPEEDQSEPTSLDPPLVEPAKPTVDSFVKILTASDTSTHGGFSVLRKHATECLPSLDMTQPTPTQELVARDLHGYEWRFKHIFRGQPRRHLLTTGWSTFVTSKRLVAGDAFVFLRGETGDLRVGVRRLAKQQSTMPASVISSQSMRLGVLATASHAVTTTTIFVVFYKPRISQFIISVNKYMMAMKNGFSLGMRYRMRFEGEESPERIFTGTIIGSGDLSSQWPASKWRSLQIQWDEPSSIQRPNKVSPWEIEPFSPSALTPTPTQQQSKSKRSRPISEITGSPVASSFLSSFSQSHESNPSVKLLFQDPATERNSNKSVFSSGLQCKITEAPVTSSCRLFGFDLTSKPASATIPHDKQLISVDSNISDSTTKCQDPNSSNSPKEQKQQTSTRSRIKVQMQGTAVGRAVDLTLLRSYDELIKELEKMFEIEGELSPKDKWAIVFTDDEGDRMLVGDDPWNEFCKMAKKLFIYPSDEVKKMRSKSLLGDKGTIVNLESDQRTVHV
UniProt Q9XFM0, sequence (whole entry, looked up): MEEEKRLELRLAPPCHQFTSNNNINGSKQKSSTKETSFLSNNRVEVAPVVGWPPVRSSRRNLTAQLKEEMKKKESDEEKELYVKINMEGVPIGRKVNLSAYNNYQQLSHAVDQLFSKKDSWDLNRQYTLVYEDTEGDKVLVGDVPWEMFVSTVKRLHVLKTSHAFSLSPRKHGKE

Sample 1 — target: CCNB3, cyclin fold, Cln2 fusion (human); technique: yeast growth competition, sequencing; matrix: yeast; setting: weak parent motif; relative to: not given; direction: higher = stronger binding
Starting sequence: CDKN1B docking peptide (human); PSACRNLFGPVDH
| Change | normalised enrichment score |
| --- | --- |
| PSLCRNLFGPVDH [A3L] | 0.694 |
| PSACRNLFGPVSH [D12S] | 0.000446 |
| PSACRNLFGPGDH [V11G] | 0.358 |
| PSACRNLPGPVDH [F8P] | 0.216 |
| PSACRNLSGPVDH [F8S] | 0.261 |
| PSACRNLKGPVDH [F8K] | 0.118 |
| PSQCRNLFGPVDH [A3Q] | 0.432 |
| PSAMRNLFGPVDH [C4M] | -0.144 |

Sample 2 — technique: two-hybrid; direction: higher = firmer interaction
Substance: IAA8 (Arabidopsis thaliana, UniProt Q38826)
UniProt Q38826, sequence (whole entry, looked up): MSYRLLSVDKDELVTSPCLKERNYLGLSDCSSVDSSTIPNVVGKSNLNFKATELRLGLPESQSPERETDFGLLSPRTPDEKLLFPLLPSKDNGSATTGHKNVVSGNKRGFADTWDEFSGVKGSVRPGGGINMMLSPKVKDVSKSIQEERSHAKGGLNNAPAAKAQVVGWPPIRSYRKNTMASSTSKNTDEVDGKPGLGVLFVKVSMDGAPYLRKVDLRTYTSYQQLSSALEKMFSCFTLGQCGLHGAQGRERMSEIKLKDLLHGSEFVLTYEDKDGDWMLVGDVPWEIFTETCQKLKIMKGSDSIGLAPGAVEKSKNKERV
| partner | setting | scale | positive tests |
| --- | --- | --- | --- |
| ARF8 699-811 (Arabidopsis thaliana, UniProt Q9FGV1) | – | relative to: out of 4 tests | 3 |
| ARF11 500-622 (Arabidopsis thaliana, UniProt Q9ZPY6) | – | relative to: out of 2 tests | 0 |
| IAA27 (Arabidopsis thaliana, UniProt Q9ZSY8) | – | relative to: out of 4 tests | 4 |
| ARF10 575-693 (Arabidopsis thaliana, UniProt Q9SKN5) | – | relative to: out of 4 tests | 1 |
| IAA28 (Arabidopsis thaliana, UniProt Q9XFM0) | – | relative to: out of 2 tests | 2 |
| IAA12 (Arabidopsis thaliana, UniProt Q38830) | – | relative to: out of 4 tests | 4 |
| IAA11 (Arabidopsis thaliana, UniProt Q38829) | weak activation fusion | relative to: out of 2 tests | 0 |
| IAA33 (Arabidopsis thaliana, UniProt Q9FKM7) | – | relative to: out of 4 tests | 0 |

Sample 3 — target: NFIL3, bZIP domain (human); technique: DHFR protein complementation; matrix: yeast; relative to: wild-type JUN-FOS pair; direction: higher = stronger binding
Setting: single substitutions, most at no-binding floor
Starting sequence: JUN, bZIP domain (human); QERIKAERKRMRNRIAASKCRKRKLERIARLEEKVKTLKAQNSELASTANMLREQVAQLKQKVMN; partner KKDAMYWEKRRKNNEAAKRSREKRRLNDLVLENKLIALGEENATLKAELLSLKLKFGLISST
| Change | binding fitness |
| --- | --- |
| E54K | -1.52 natural log |
| N42D | -1.49 natural log |
| R53D | -1.5 natural log |
| T37W | -1.32 natural log |
| R30Q | -1.49 natural log |
| T37F | -1.6 natural log |
| A57H | -1.46 natural log |
| S47N | -1.5 natural log |

Single results of other studies
| Molecule | target | assay | test system | setting | measurement | value |
| --- | --- | --- | --- | --- | --- | --- |
| MSRKLHRYI | HLA class I histocompatibility antigen, A alpha chain, allele A*80:01 (Homo sapiens, UniProt P04439) | peptide-MHC binding | peptide | concentration not given | binding | inactive |
